Assay results of several laboratories.
Each line is one published result; not all experiments were run side by side. “And” joins repeats or separate records; there may be more than shown. ± marks the error that the study gave.
USP14: Ubiquitin carboxyl-terminal hydrolase 14 (USP14, Homo sapiens, UniProt P54578)
Gria2/Glutamate receptor 3: Gria2/Glutamate receptor 3 (Rattus norvegicus, UniProt P19491+P19492)
MAPK8: Mitogen-activated protein kinase 8 (MAPK8, Homo sapiens, UniProt P45983)
SLC6A9: Sodium- and chloride-dependent glycine transporter 1 (SLC6A9, Homo sapiens, UniProt P48067)

Structure (SMILES) = C[Si]1(C[C@H](CN)CC(=O)O)CCCC1; tested on = GABBR1 (Homo sapiens, UniProt Q9UBS5); assay = ligand displacement, radioligand; conditions = 70 µM; measurement = inhibition; result = 0%
Structure (SMILES) = O=C1c2ccccc2C(=NS(=O)(=O)c2ccc(F)cc2)CC1Sc1nc[nH]n1 (stereo not shown); tested on = USP14; assay = enzyme activity, inhibitor; conditions = 17 µM; measurement = inhibition; result = 78%
Structure (SMILES) = O=C(O)Cc1cc2c(cc1C(=O)c1ccc(Cl)cc1Cl)OCO2; tested on = Gria2/Glutamate receptor 3; assay = glutamate-evoked current, whole-cell patch clamp; system = HEK-293T; conditions = concentration not given; measurement = current amplitude; result = 54 ± 3 pA
Structure (SMILES) = On1ccc2c(Br)cncc21; tested on = USP14; assay = enzyme activity, inhibitor; conditions = 17 µM; measurement = inhibition; result = 42%
Structure (SMILES) = C#CCN1CCN(c2nc(N3CCN(c4ccc(Cc5cc(CNC(=O)[C@@H]6C[C@@H](O)CN6C(=O)[C@@H](NC(=O)C6(F)CC6)C(C)(C)C)c(O)cc5-c5scnc5C)cc4)CC3)nc(N3CCN(C(=O)C4CC4)C3)n2)CC1=O; tested on = VHL/BRD9, with Elongin B/C (Homo sapiens, UniProt P40337+Q9H8M2); assay = native mass spectrometry; conditions = 5 µM, with: BRD9 and VCB at 5 µM; scale = reference: unbound BRD9; measurement = ternary complex formation; result = 0%
Structure (SMILES) = COC(=O)[C@@]1(C)C=C(C(=O)Nc2cccc(C(=O)Nc3ccc(Nc4nccc(-c5cccnc5)n4)c(C)c3)c2)C(=O)CC1; tested on = MAPK8; assay = enzyme activity, inhibitor; conditions = 0.0007527 µM, 18 h, unit not given, with: GSH 10 mM pre-incubation; scale = reference: vehicle; measurement = remaining activity; result = 0.982
Structure (SMILES) = CC(=O)c1ccc2c3c(cccc13)NC(C)=N2; tested on = Rac GTPase-activating protein 1 (Homo sapiens, UniProt Q9H0H5); assay = enzyme activity, inhibitor, ADP detection; conditions = 20 µM; measurement = inhibition; result = 26.5%
Structure (SMILES) = O=C(O)Cc1cc2c(cc1C(=O)c1cccc(Br)c1)OCO2; tested on = Gria2/Glutamate receptor 3; assay = whole-cell patch clamp; system = HEK-293T; conditions = concentration not given, with: glutamate; measurement = desensitization time constant; result = 1.1 ± 0.2 ms
Structure (SMILES) = Cn1cc(-c2cc(N3CCCCS3(=O)=O)ccc2N[C@H]2CC[C@H](C)CC2)c2cc[nH]c2c1=O (stereo in doubt); tested on = EP300 (Homo sapiens, UniProt Q09472); assay = binding, competition with immobilised ligand; conditions = 1 µM; measurement = remaining binding; result = 16%
Structure (SMILES) = CC(C)C[C@@H]1NC(=O)CN(C)C(=O)[C@H](Cc2c[nH]c3ccccc23)NC(=O)[C@H](CCC(=O)O)NC(=O)[C@H](Cc2ccccc2)N(C)C(=O)[C@H](Cc2ccccc2)NC(=O)CSC[C@@H](C(N)=O)NC(=O)[C@H](CCCCN)NC(=O)[C@H](C(C)C)NC(=O)[C@H](Cc2ccc(O)cc2)NC(=O)[C@H](Cc2ccc(O)cc2)NC(=O)[C@H](C(C)C)NC(=O)[C@H](Cc2ccccc2)N(C)C(=O)[C@H](CCCNC(=N)N)NC1=O; tested on = AT-rich interactive domain-containing protein 1B (ARID1B, Homo sapiens, UniProt Q8NFD5, A2203Q); assay = differential scanning fluorimetry; conditions = 5 µM, A2120Q mutant; measurement = ΔTm; result = 0 °C
Structure (SMILES) = C=C1C[C@@]2(C(=O)OC)C=C(C(=O)Nc3cccc(C(=O)Nc4ccc(Nc5nccc(-c6cccnc6)n5)c(C)c4)c3)C(=O)[C@@H]1C2; tested on = MAPK8; assay = kinase activity, inhibitor; conditions = 0.06097 µM, unit not given, with: 10 mM glutathione; scale = reference: no inhibitor; measurement = remaining activity; result = 0.666
Structure (SMILES) = CCCCOc1ccc(C(=O)OCC[N+]2(C)CC=CCC2)cc1 (stereo not shown); tested on = CHRM1 (Homo sapiens, UniProt P11229); system = membranes; conditions = 10 µM, 15 h, no carbachol; scale = reference: control; measurement = basal binding; result = 0.94 ± 0.02 fold
Structure (SMILES) = C[n+]1cccc2cc(/C=N/NC(=O)c3cccc(C(=O)N/N=C/c4ccc5c(ccc[n+]5C)c4)n3)ccc21; tested on = hp2 hairpin duplex DNA; assay = FRET melting; conditions = 1 µM, with: ds26 10 µM; measurement = ΔTm; result = 0.8 ± 0.2 °C
Structure (SMILES) = CCOC(=O)C1CCCN(CCCCO)C1 (stereo not shown); tested on = SLC6A9; assay = cell-free assay; conditions = 1 µM; measurement = remaining signal; result = 90.5%
Structure (SMILES) = CC(C)[C@@H]1NC(=O)[C@H](Cc2ccccc2)NC(=O)CSC[C@@H](C(N)=O)NC(=O)[C@H](CCC(=O)O)NC(=O)[C@H](CO)NC(=O)[C@H](Cc2c[nH]c3cccc(Cl)c23)NC(=O)[C@H](C2CCCCC2)NC(=O)[C@H](C(C)C)NC(=O)[C@H](Cc2ccc(O)cc2)NC(=O)[C@H](CC(=O)O)NC(=O)[C@H](Cc2c[nH]c3ccccc23)NC(=O)[C@H](Cc2ccc(N)nc2)NC(=O)[C@H](Cc2c[nH]c3ccc(Cl)cc23)NC(=O)[C@H](CCC(=O)O)NC1=O; tested on = Interleukin-1 receptor-like 2 (IL1RL2, Homo sapiens, UniProt Q9HB29); assay = reporter gene (SEAP), inhibitor, HEK-Blue IL-36R reporter; system = HEK-Blue IL-36R cells; conditions = 0.14 µM, 6 h, with: IL-36β 0.01 ng/mL; measurement = remaining activity; result = 45.4%
Structure (SMILES) = COC(=O)c1cc2cc3c(cc2oc1=O)N(CC(=O)NC(Cc1ccc(C)cc1)C(=O)NCC=CS(=O)(=O)c1ccccc1)CCC3 (stereo not shown); tested on = Cathepsin S (CTSS, Homo sapiens, UniProt P25774); assay = inhibitor; conditions = with: Z-Phe-Arg-AMC; measurement = kinact/Ki; result = 5510 M⁻¹ s⁻¹
Structure (SMILES) = COc1ccc(C(/C=C/CN2CCCC(CO)C2)(c2ccc(OC)cc2)c2ccc(OC)cc2)cc1 (stereo not shown); tested on = SLC6A9; assay = cell-free assay; conditions = 1 µM; measurement = remaining signal; result = 83.8%
Structure (SMILES) = CCCCCC(O)/C=C/C=O (stereo not shown); tested on = Histone acetyltransferase type B catalytic subunit (Homo sapiens, UniProt O14929); assay = competitive isoTOP-ABPP, measured: HAT1 cysteine peptide; system = Ramos soluble proteome; conditions = 100 µM, with: iodoacetamide probe; scale = reference: DMSO over compound-treated, higher = stronger cysteine blockade; measurement = isoTOP-ABPP competition ratio; result = 1.5
Structure (SMILES) = O=C(N1CCCC1)n1cc(-c2ccc(-c3ccccc3)cc2)nn1; tested on = Protein ABHD13 (Abhd13, Mus musculus, UniProt Q80UX8); assay = probe labelling, inhibitor, competitive ABPP-SILAC, measured: Abhd13; system = mouse T cells; conditions = concentration not given, 4 h, in situ, single peptide; scale = reference: treated over DMSO, lower = more inhibition; measurement = SILAC ratio; result = 1.19 and 1.15 and 1.3
Structure (SMILES) = C#CCOC(=O)[C@@]1(C)C=C(C(=O)OC(C)(C)C)C(=O)CC1; tested on = MAPK8; assay = D-peptide binding, inhibitor, FP peptide displacement; conditions = 1.562 µM; scale = lower is stronger displacement; measurement = fraction bound; result = 0.963
Structure (SMILES) = c1ccc(Nc2ncnc3ccc(-c4cccc(N5CCOCC5)c4)cc23)cc1; tested on = Leishmania major; assay = intracellular amastigote growth, luciferase; system = RAW264.7 macrophages; measurement = EC50; result = 26 µM
Structure (SMILES) = N#CN1CC[C@H](C(=O)Nc2nc3c(s2)CN(C(=O)Cn2cc(CNC(=O)CCCC[C@@H]4SC[C@@H]5NC(=O)N[C@@H]54)nn2)CC3)C1; tested on = (E3-independent) E2 ubiquitin-conjugating enzyme (UBE2O, Homo sapiens, UniProt Q9C0C9); assay = probe binding, affinity probe, neutravidin pull-down LC-MS/MS; system = HEK293T, cell lysate; conditions = 5 µM, 1 h, single replicate, unit not given; scale = higher = more pulled down; measurement = iBAQ abundance; result = 582000 and 1.35e+06 and 915000
Structure (SMILES) = CCCCCCCCCCCCCCCC(=O)OCC(CSC[C@H](N)C(=O)N[C@@H](CO)C(=O)N[C@@H](CCCCN)C(=O)N[C@@H](CCCCN)C(=O)N[C@@H](CCCCN)C(=O)N[C@@H](CCCCN)C(=O)NCCCCCC(=O)N[C@@H](CCCCN)C(=O)N[C@@H](CC(C)C)C(=O)N[C@H](C(=O)N[C@@H](Cc1ccccc1)C(=O)N[C@@H](Cc1ccccc1)C(=O)N[C@@H](Cc1ccc2ccccc2c1)C(=O)O)C(C)C)OC(=O)CCCCCCCCCCCCCCC (stereo partly shown); tested on = Amyloid-beta precursor protein, fibrillar amyloid-beta (APP, Homo sapiens, UniProt P05067); assay = TEM; conditions = 2.0 eq, 28 h, fibril 2, with: APP 20 µM; measurement = fibril diameter; result = 9.71 nm
Structure (SMILES) = O=c1[nH]c2cccnc2n1-c1ccc2c(c1)OC1(CCCCC1)O2; tested on = KCNC1 (Homo sapiens, UniProt P48547); assay = potassium current, activator, automated patch clamp; system = HEK293 expressing Kv3.1; conditions = 33 µM; measurement = potentiation; result = 139%
Structure (SMILES) = CC[n+]1cccc2cc(/C=N/NC(=O)c3ccc4ccc5ccc(C(=O)N/N=C/c6ccc7c(ccc[n+]7CC)c6)nc5c4n3)ccc21; tested on = hp2 hairpin duplex DNA; assay = FRET melting; conditions = 1 µM, with: ds26 10 µM; measurement = ΔTm; result = 1 ± 0.3 °C
Structure (SMILES) = O=C(c1ccc(-c2ccc3ncnc(Nc4ccc(OCc5cccc(F)c5)c(Cl)c4)c3c2)cc1)N1CCCCC1; tested on = Leishmania major; assay = intracellular amastigote growth, luciferase; system = RAW264.7 macrophages; measurement = EC50; result = 2.9 µM
Structure (SMILES) = CN(C)C=CC=C1CCc2ccccc2C1=O; tested on = USP14; assay = enzyme activity, inhibitor; conditions = 17 µM; measurement = inhibition; result = 70%
Structure (SMILES) = CN(CCNCc1cc(C(=O)[O-])ccc1[O-])CCNCc1cc(C(=O)[O-])ccc1[O-].[Cl-].[Fe+3].[K+].[K+]; tested on = TF (Homo sapiens, UniProt P02787); assay = measured: Fe; conditions = pH 7.4, 37 °C, 4-fold transferrin decrease; measurement = transchelation rate constant; result = 0.025 min⁻¹
